Measured values gathered from unrelated publications.
A part holds a random share of what one study measured.

Sample 1 — technique: protein-binding microarray; molecule type: double-stranded DNA, one strand shown; medium: in vitro; tested at: 250 nM; setting: 60-bp whole probe; together with: salmon DNA 0.4 mg/ml; relative to: random background probes; direction: higher = stronger binding; all sequences stand within: GCCTAGCAC … GTCTTGATTCGCTTGACGCTGCTG
Target: Interferon regulatory factor 5, full length, phosphomimetic (IRF5, Homo sapiens, UniProt Q13568-2, residues 1-514, K96S/S451D/S453D/S456D/S462D)
| Strand | log fluorescence [z-score] |
| --- | --- |
| GACGGTATCAACACTGGGGACGTGCTA | -0.0211 |
| GACGGTCTAGGTCTCGGGACGTGCTAG | -0.405 |
| GACGGTTTCGGGTTTCGGGACGTGCTA | 7.65 |
| ATTGCTTCCTCTTTTTTGTTGTGCTAG | 1.02 |
| GACGGACTGGTTATCCTGACGTGCTAG | -0.445 |
| TTAGAACTGAGTATCTATTAGTGCTAG | 1.06 |
| AGCTTTCCCAACATCAGAGCGTGCTAG | 0.267 |
| TTAGGTATCCTGCTGCTTTAGTGCTAG | -0.288 |
| GACGACTCCAGTTTCGAGACGTGCTAG | 4.85 |
| GACCGTTTCCTTCTCCTGACGTGCTAG | 0.626 |
| TTAGGCTTCCTACTGCTTTAGTGCTAG | -0.303 |
| GACGATATCAGTCTCGCGACGTGCTAG | 0.974 |
| TTAGGTCTCCTACCGCTTTAGTGCTAG | -0.175 |
| GACGGTCTCGGTTTAGGGACGTGCTAG | 0.709 |
| AGTTTTTCATTTTTTTTCATGTGCTAG | 2.13 |
| TTAGGTTTCGACTATAGGTTAGTGCTA | 7.32 |
| TCAATTTTCTCTGTTCTACTGTGCTAG | 1.29 |
| TTAAGTCTCGGTATCGGTTAGTGCTAG | 6.31 |
| TTAGATCTCGGACTGGGTTAGTGCTAG | -0.204 |
| CCCCCAATCTCTCTTCACATGTGCTAG | -0.109 |

Sample 2 — technique: universal PBM; molecule type: double-stranded DNA, one strand shown; medium: in vitro; tested at: 600 nM; direction: higher = stronger binding
Target: Sal-like protein 4, full length isoform A (SALL4, Homo sapiens, UniProt Q9UJQ4, residues 1-1053)
Sequence of UniProt Q9UJQ4 (whole entry, looked up): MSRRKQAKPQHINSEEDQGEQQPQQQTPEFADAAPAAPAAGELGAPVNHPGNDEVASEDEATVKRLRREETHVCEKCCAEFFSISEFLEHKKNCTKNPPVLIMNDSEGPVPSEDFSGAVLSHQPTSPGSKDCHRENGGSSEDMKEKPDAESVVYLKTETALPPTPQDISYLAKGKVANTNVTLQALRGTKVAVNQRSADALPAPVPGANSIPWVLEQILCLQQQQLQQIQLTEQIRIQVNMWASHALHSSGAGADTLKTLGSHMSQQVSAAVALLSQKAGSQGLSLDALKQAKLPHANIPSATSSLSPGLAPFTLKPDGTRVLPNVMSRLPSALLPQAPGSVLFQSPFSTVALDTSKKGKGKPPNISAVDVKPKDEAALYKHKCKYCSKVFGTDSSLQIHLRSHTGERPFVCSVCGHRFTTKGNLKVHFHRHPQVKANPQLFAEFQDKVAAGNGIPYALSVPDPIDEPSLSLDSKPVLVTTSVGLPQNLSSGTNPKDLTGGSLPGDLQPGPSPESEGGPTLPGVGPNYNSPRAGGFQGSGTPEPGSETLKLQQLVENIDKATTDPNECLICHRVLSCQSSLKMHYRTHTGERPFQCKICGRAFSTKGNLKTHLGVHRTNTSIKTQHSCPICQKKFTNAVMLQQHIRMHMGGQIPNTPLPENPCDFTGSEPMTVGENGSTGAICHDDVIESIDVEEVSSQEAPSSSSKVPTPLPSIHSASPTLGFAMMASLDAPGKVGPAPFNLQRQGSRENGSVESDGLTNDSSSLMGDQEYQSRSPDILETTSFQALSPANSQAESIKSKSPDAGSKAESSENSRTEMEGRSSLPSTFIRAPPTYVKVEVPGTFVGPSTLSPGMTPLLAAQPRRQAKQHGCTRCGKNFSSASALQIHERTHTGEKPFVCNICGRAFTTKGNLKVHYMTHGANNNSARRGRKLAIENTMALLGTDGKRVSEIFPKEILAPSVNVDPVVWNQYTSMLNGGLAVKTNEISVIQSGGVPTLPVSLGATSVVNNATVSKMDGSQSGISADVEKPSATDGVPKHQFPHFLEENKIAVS
Setting: 8-mer, flanks averaged, mean of replicates
| Strand | E-score |
| --- | --- |
| GTTAACGA | 0.101 |
| CCGAGAGG | -0.29 |
| AATAGATC | 0.22 |
| CAGCTGCA | -0.135 |
| ATTGAGAA | 0.267 |
| CAGACCCA | -0.147 |
| GCTCTCAC | -0.27 |
| CCGAGTAA | 0.0131 |
| CCGGTCCC | -0.362 |
| AACTGGAG | -0.069 |
| GCCACACC | -0.142 |
| GGAGGTTA | -0.0174 |
| TACCGCCA | 0.0006 |
| GACCCGTC | -0.374 |
| CGCGACGC | -0.333 |
| ACGACCGC | -0.303 |
| CTGAGAAG | -0.169 |
| AAGATCGG | -0.182 |
| ATGAACAA | 0.268 |
| CTAAGCAG | -0.235 |
| ATCGGGTA | -0.0875 |
| CTTGTGGA | -0.116 |
| TACTACCA | 0.0483 |
| CAATGATG | 0.16 |
| TAATTGTA | 0.38 |

Sample 3 — technique: RNA Bind-n-Seq; molecule type: RNA; medium: in vitro; tested at: 365 nM; relative to: no-protein control; direction: higher = stronger binding
Target: RNA binding protein fox-1 homolog 2, RRM domain, GST-SBP tag (RBFOX2, Homo sapiens, UniProt O43251-10, residues 100-194)
Setting: natural RNA segment, single round, ends assumed
All sequences stand within: GGGAGUUCUACAGUCCGACGAUC … UGGAAUUCUCGGGUGCCAA
Construct (chain): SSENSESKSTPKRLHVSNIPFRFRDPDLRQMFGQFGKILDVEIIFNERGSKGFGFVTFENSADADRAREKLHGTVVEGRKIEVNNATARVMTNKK
| Strand | RBNS enrichment (R) |
| --- | --- |
| AACAGAUGAACUGUAAUGACGACCUGCUAACUGCUAGCCUUCAGCGCUAUCUGUUCCCUCACACAGUCGCUAAGUGGUCAAAUUGGUGCUUGAAAUUCAUUGGUCUAGUU | 1.28 |
| AGUGCUUGACCCAAGUCAGUCAUAUUUAUAAUAUGCCUGCUCUUUGUUUAAAAUUAAAUUUGGGCACAGGAAGCACACAGAGACAUUUAGGUUGUUUAAAAAGUCAGAAU | 0.395 |
| UGUAUUUUUGUAUAUUGUAUUUAUAUAUAAAGAAAGAAAUGUCUACUUAUGCAUGCUAAAUUAUUAUUUAGCUUUCCCAUCCCCCAGGGUGGAGAUGGAAUGUAAAAUAA | 2.58 |
| AUUGUGGCUUGAAGGACUGCACUAAAACCCACUAAAAAGAUGCGAAAACCUGAUGAGGGCAAACCAGUUAAACCUAACACCCUGCCUUGUCUGGGCUCAUCACCUCUCCC | 0.369 |
| UCCCACAGGGGCCAUGUCCUCUCUUAAUAGGUGGCACUACCCCAAACCCAUCUUUUGUUCUCCUAUAUCCUCCUUCUUCUGUUCCAUUUCAGUUCAGUUUCAGCGGUGCC | 0.912 |
| GAAGCUUUUAUUGUUACACUUCUUACCCUCUUUCAUAUCCAAAAUUGCCAAGUGCCUCUGCAGACUGGCCUUCCACCCUAGGCGCGGGCAGUUGGCAGAAGAAAGGCAGG | 0.355 |
| GCGCCAUCACAACUUAUUUGUGUGACUAAUUGCCUAGAUUGUAAGCUCUUUGAGGGCAGGGCUUGUCUCUUACACAUCUUUAUAAUCCCCUGCAGCGGCUUUCAGUAUUU | 0.478 |
| AUAAGCAAGAGUCUUUCAUUGUCAGAAUAAGUAUUUUUCACGAUCUGUUUGAAGAGCAUCAUUGCUAACUAGCAUGAAGCAGAGGGCAAUGAUGCCUGUAAAUAUGAAAA | 2.54 |
| GGAGGCUGUUUAUUUCAACCUUUUUAAAAAUUGUGUUUUUUAGUAAAAUGGCUUAUUUUUUCCCAAAGGUGGAAUUUAGCAUUUUGUAAUGAUGAAUAUAAAAAUACCUG | 0.569 |
| CAAAGAGUCCUAAGGAGUUAAAUCUUCCAGGUAUUUUCCACUUAGUAUUGCAGCCAAAGAAUAUUUAAAUAAACGUCUUUGCUGCGCUUGCAUCCAUGCCCAGCCAAUAU | 0.661 |
| UCAGUUUUGCUCCCUCUGGGUUUUUAUAAGAUUUGCCAUGACAUUUCAUCUGGGUGGUCCAGAUAGUAAAGCGCUUUUAUUUCUGGAGCUGGGGAAGCAGAUGACUCUUC | 0.585 |
| GGGGGAGGGGGUAUUUGCAAAACCUUAAUUUUGUUAAAAUGGGGGACUCUGUCAGGGGACUCUGUCAUCGCUUCCCUUCCUCAGAGGACAGCACAGAGCCGCGGCGUACA | 0.601 |

Sample 4 — technique: protein binding microarray; molecule type: double-stranded DNA, one strand shown; medium: in vitro; tested at: not given; relative to: not given; direction: higher = stronger binding
Target: Histone acetyltransferase KAT6A, winged helix 2, GST fusion (KAT6A, Homo sapiens, UniProt Q92794, residues 85-181)
Setting: 8-mer, flanks averaged, mean of 2 arrays, mostly near background
Construct (chain): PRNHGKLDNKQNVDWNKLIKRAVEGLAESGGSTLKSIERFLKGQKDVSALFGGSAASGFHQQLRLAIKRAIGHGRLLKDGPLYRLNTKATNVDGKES
| Strand | E-score |
| --- | --- |
| CTGTAACA | -0.0639 |
| CATGTTGA | 0.15 |
| GGTCTCAA | -0.0891 |
| ACTCACAT | -0.0901 |
| TTCCACAA | -0.0331 |
| CTTGGTTC | 0.119 |
| GTATCAAA | 0.0897 |
| AAGGTTAA | -0.0576 |
| CCAGGCGG | 0.286 |
| AATATTTG | 0.0951 |
| ATTATATA | 0.0237 |
| TGATCACA | -0.00604 |
| AGTGTTGC | 0.0677 |
| ATGACTAC | -0.331 |
| TCGTTCCA | -0.0682 |
| ACCTAGAA | -0.0616 |
| ACAACAGA | -0.000905 |
| ATTTGCGG | 0.0912 |
| ATAACGAC | -0.094 |
| AATTAAAT | -0.00222 |
| GCAGCAGA | 0.126 |
| ATTGAGCC | 0.0854 |
| ACTGCAGA | 0.0384 |
| AGGTGGCA | 0.0846 |
| ACAAGGAA | 0.181 |

Sample 5 — technique: aptamer microarray, sandwich; molecule type: DNA with 2'F-ANA; medium: in vitro; tested at: 200 nM; together with: Cy3 exosite-II aptamer, 400 nM; direction: higher = stronger binding; strand: GGTTGGTGTGGTTGG
Target: Prothrombin, mature alpha-thrombin (F2, Homo sapiens, UniProt P00734)
Setting: whole 15-mer aptamer, many near background
| Modification | mean fluorescence intensity [a.u.] |
| --- | --- |
| 2'F-ANA at 3 5 8 11 12 14 15 | 64.4 |
| 2'F-ANA at 2 4 6 9 11 14 15 | 75.3 |
| 2'F-ANA at 2 4 5 6 8 10 11 12 14 | 47 |
| 2'F-ANA at 1 2 5 6 9 15 | 59.3 |
| 2'F-ANA at 1 2 3 4 5 8 10 12 13 14 15 | 52.8 |
| 2'F-ANA at 3 4 8 9 10 11 12 13 14 | 171 |
| 2'F-ANA at 6 7 8 9 11 15 | 431 |
| 2'F-ANA at 4 5 6 7 8 11 12 | 142 |
| 2'F-ANA at 2 3 4 6 7 8 9 10 11 14 15 | 197 |
| 2'F-ANA at 1 2 4 5 10 13 14 | 43.5 |
| 2'F-ANA at 6 7 13 14 | 199 |
| 2'F-ANA at 1 3 8 9 10 11 12 14 | 57.5 |
| 2'F-ANA at 1 2 3 4 5 6 7 8 9 10 15 | 51.2 |
| 2'F-ANA at 1 3 4 5 6 8 11 12 13 | 112 |
| 2'F-ANA at 1 6 11 14 | 62.7 |
| 2'F-ANA at 2 5 8 10 11 12 | 47.9 |
| 2'F-ANA at 1 3 6 9 10 11 12 13 15 | 93.1 |
| 2'F-ANA at 2 4 9 11 15 | 245 |
| 2'F-ANA at 1 3 4 7 8 9 10 11 13 14 | 50.6 |
| 2'F-ANA at 1 3 5 7 9 11 13 14 15 | 44.3 |

For quick reference, copied from above (sample 5):
| Modification | mean fluorescence intensity [a.u.] |
| --- | --- |
| 2'F-ANA at 2 4 5 6 8 10 11 12 14 | 47 |
| 2'F-ANA at 1 2 5 6 9 15 | 59.3 |
| 2'F-ANA at 1 2 3 4 5 8 10 12 13 14 15 | 52.8 |
| 2'F-ANA at 3 4 8 9 10 11 12 13 14 | 171 |
| 2'F-ANA at 6 7 8 9 11 15 | 431 |
| 2'F-ANA at 4 5 6 7 8 11 12 | 142 |
| 2'F-ANA at 2 3 4 6 7 8 9 10 11 14 15 | 197 |
| 2'F-ANA at 1 2 4 5 10 13 14 | 43.5 |
